Results collected from several papers.
A part holds a random share of what one study measured. Values joined by “and” are separate records of one study, mostly repeats; a detail may differ.
UniProt P29320, sequence (whole entry, looked up): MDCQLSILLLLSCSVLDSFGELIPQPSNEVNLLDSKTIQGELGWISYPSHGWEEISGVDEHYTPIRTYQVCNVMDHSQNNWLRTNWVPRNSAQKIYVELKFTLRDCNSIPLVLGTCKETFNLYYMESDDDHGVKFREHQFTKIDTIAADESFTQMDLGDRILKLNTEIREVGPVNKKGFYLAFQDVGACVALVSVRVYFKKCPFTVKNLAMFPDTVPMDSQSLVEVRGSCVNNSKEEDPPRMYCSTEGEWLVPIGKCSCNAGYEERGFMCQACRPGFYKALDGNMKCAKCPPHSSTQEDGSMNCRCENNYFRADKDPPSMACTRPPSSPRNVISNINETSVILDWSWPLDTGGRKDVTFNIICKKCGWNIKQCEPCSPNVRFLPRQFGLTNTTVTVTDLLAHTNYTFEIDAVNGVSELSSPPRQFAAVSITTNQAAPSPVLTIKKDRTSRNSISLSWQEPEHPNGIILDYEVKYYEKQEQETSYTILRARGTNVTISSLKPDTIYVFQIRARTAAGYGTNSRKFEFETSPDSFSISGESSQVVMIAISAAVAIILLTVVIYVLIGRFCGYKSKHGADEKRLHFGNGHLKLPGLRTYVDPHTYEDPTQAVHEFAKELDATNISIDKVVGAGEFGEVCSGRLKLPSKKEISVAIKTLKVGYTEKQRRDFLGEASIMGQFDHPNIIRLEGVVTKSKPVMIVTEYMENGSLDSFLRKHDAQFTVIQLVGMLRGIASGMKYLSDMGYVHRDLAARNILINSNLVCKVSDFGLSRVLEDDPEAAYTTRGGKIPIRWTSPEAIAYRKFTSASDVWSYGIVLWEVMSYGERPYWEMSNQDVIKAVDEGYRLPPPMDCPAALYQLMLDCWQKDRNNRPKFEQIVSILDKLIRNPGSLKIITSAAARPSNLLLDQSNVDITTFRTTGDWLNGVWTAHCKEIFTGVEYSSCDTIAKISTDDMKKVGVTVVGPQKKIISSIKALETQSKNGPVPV
UniProt P11229, sequence (whole entry, looked up): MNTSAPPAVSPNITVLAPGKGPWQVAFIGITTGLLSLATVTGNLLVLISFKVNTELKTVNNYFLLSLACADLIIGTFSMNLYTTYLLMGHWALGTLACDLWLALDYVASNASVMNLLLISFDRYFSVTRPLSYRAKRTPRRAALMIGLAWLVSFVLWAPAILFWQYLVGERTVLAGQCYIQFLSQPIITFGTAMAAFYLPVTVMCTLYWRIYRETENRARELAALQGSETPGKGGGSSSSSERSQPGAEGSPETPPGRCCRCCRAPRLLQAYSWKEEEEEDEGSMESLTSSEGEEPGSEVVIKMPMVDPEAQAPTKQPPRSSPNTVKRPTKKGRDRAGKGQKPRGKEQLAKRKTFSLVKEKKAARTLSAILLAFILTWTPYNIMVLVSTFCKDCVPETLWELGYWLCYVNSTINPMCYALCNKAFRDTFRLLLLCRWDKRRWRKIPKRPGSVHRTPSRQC
UniProt Q86UE8, sequence (whole entry, looked up): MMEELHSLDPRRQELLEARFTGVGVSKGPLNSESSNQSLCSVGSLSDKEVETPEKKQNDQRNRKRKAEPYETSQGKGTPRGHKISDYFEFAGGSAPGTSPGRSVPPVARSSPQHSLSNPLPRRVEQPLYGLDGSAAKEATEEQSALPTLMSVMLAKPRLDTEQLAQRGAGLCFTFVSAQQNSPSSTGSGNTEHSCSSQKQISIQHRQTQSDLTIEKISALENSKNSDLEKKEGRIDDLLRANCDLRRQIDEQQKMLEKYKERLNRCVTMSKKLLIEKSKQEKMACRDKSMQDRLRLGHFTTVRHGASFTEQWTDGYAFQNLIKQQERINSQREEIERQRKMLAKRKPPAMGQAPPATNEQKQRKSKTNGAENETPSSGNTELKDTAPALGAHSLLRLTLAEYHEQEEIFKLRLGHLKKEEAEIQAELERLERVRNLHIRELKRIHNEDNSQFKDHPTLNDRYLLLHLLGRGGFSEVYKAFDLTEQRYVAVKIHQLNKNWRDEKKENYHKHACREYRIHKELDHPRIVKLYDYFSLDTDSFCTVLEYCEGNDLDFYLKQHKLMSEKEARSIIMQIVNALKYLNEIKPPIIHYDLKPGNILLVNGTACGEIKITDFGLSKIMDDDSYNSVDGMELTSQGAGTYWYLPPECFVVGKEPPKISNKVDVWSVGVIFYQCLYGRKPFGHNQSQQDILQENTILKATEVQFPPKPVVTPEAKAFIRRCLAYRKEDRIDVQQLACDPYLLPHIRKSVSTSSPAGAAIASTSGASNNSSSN
UniProt P42336, sequence (whole entry, unmodified, looked up): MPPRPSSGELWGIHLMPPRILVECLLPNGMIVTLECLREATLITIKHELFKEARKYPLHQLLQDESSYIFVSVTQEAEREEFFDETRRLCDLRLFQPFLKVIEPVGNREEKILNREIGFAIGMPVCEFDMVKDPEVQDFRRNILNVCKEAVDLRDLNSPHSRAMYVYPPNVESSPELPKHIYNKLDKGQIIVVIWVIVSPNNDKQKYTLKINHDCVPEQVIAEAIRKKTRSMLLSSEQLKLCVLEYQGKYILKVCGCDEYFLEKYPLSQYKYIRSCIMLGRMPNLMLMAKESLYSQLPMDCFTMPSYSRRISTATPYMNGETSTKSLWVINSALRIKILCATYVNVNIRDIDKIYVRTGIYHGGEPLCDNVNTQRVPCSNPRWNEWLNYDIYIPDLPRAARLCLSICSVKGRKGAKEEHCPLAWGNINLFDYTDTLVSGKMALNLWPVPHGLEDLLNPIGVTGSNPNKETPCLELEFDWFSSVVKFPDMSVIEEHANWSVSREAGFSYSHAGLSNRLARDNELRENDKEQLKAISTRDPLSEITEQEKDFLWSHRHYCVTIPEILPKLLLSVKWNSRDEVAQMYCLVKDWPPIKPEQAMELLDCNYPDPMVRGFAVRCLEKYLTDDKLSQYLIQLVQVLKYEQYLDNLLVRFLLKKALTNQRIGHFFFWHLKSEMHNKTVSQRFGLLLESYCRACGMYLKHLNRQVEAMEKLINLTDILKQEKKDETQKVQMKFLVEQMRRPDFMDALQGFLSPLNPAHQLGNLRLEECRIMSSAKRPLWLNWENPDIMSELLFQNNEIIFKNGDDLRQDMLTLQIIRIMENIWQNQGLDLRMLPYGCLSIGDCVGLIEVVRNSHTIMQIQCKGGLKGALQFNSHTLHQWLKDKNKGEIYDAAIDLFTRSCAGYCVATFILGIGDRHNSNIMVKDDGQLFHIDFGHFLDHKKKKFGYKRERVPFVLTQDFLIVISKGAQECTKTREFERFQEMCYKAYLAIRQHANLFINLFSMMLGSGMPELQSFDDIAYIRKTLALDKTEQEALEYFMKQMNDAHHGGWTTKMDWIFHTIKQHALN
UniProt P19525, sequence (whole entry, looked up): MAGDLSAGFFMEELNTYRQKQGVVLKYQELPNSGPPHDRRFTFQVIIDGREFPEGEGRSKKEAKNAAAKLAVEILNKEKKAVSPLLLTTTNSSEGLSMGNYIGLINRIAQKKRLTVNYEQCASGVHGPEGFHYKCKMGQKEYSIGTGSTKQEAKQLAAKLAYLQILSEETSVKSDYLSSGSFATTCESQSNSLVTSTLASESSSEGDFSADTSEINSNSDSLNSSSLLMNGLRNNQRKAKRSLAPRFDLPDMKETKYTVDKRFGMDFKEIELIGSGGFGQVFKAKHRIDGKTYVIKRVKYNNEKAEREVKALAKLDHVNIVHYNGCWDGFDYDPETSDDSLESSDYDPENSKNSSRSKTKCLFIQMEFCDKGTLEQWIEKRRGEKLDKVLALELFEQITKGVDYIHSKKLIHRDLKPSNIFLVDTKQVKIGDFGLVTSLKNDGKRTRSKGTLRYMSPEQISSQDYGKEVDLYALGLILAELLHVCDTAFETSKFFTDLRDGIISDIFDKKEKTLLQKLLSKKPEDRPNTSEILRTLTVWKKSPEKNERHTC
UniProt Q13557, sequence (whole entry, looked up): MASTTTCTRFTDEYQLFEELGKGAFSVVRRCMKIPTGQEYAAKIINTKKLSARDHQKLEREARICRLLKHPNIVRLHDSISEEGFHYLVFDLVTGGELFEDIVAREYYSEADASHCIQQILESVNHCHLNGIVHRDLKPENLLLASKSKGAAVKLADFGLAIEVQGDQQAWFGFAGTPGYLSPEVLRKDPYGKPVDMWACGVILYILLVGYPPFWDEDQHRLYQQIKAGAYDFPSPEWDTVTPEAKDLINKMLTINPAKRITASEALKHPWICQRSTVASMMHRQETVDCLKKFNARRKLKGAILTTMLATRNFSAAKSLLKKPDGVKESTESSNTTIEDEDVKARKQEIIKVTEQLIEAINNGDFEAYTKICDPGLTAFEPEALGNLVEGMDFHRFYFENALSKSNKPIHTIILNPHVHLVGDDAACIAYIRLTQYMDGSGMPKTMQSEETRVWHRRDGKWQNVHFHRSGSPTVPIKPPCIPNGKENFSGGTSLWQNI

Set 1
Target: Tyrosine-protein kinase CSK (CSK, Homo sapiens, UniProt P41240)
UniProt P41240, sequence (whole entry, looked up): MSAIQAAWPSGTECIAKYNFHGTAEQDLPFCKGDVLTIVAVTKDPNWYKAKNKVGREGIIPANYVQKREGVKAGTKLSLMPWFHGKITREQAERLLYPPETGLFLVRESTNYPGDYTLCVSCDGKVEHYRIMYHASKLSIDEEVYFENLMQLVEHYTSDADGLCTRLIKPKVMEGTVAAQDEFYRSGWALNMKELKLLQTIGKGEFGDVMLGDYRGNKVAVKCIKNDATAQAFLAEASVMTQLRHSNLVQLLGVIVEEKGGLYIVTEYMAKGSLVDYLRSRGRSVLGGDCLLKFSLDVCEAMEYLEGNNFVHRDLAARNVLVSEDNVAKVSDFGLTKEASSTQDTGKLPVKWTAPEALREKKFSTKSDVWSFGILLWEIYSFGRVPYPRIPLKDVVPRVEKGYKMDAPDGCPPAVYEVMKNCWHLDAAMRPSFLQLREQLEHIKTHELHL
Observed: enzyme activity
Action: inhibitor
Tested at: 0.5 µM
Relative to: control
SMILES | remaining activity [%]
COc1cc2c(N3CCN(C(=O)Nc4ccc(OC(C)C)cc4)CC3)ncnc2cc1OCCCN1CCCCC1 | 99.3
O=C1NC(=O)/C(=C/c2ccc3c(c2)OC(F)(F)O3)S1 | 88
C[C@@H](N)[C@H]1CC[C@H](C(=O)Nc2ccncc2)CC1 | 101
Clc1ccc(Nc2nnc(Cc3ccncc3)c3ccccc23)cc1 | 87.6
NC(=O)c1cccc(-c2cc(Nc3ccc(OC(F)(F)F)cc3)ncn2)c1 | 104
FC(F)(F)c1ccc(/C=C/c2nc(COc3ccc(CCCCn4ccnn4)cc3)co2)cc1 | 106
NC(=O)c1ccc(-c2nc(-c3ccc4c(c3)OCCO4)c(-c3ccccn3)[nH]2)cc1 | 104
CC(C)n1cnc2c(Nc3cccc(Cl)c3)nc(NCCO)nc21 | 98.2
Nc1nc(Nc2ccc(S(N)(=O)=O)cc2)nn1C(=S)Nc1c(F)cccc1F | 76.8
N#CC(c1ccnc(NCCc2cccnc2)n1)c1nc2ccccc2s1 (centres unmarked) | 93.4
COc1cc2c(Nc3ccc(Br)cc3F)ncnc2cc1OCC1CCN(C)CC1 | 54.4
CNc1cc2c(Nc3cccc(Br)c3)ncnc2cn1 | 82
CCCCc1c(-c2ccc(O)cc2)[nH]c2nccnc12 | 78.2
CC(C)N(CCC(=O)c1ccc2ccccc2c1)Cc1ccccc1 | 88.5
O=C(c1ccccc1)c1ccc(N2CCOCC2)cc1O | 101
CCN(CC)CCCCN1c2ccccc2Oc2ccc(Cl)cc21 | 99.1
CC(C)(C)c1nc2c3cc[nH]c(=O)c3c3cc(F)ccc3c2[nH]1 | 114
O=Nc1c(-c2c(O)[nH]c3ccccc23)[nH]c2ccccc12 | 93
N#C/C(=C(/N)SC1C=CC=CC1)c1cccc(C(O)c2ccncc2)c1 (centres unmarked) | 90.2
c1cc(-c2cnn3cc(-c4ccc(OCCN5CCCCC5)cc4)cnc23)ccn1 | 59.1
O=C(O)/C=C/c1cc(Br)c(Br)c(Br)c1Br | 103

Set 2
Compound: CN(C(=O)c1ccn2ncc(-c3ccc(C(N)=O)cc3)c2c1)c1ccc(C#N)cn1
Organism: Cryptosporidium parvum
Method: time-kill
Cells: HCT-8
Strain: nanoluciferase-expressing
Relative to: DMSO control
conditions | luminescence remaining
2.222 µM, 24 h | 45.7% and 35.3%
0.7407 µM, 4 h | 94.9% and 89%
0.02743 µM, 8 h | 97.5% and 113%
0.2469 µM, 4 h | 84.3% and 96%
0.00305 µM, 48 h | 76.6% and 71.3%
0.00305 µM, 72 h | 75.1% and 93.8%
20 µM, 0 h | 103% and 98% and 97.4% and 91.4% and 91.2% and 90.1% and 99.4% and 90.3%
2.222 µM, 48 h | 9.45% and 14.3%
2.222 µM, 0 h | 90.3% and 103% and 98% and 99.4% and 90.1% and 97.4% and 91.2% and 91.4%

Set 3
Structure (SMILES): CC#CC(=O)N1CCC[C@H]1c1nc(-c2ccc(C(=O)Nc3ccccn3)cc2)c2c(N)nccn12
Observed: enzyme activity
Action: inhibitor
Tested at: 1 µM
target | inhibition [%]
PIK3CA (Homo sapiens, UniProt P42336, E545A) | 3
EPHA3 (Homo sapiens, UniProt P29320) | 0
CAMK2D (Homo sapiens, UniProt Q13557) | 0
EIF2AK2 (Homo sapiens, UniProt P19525) | 29
PRKCH (Homo sapiens, UniProt P24723) | 9
MAP3K9 (Homo sapiens, UniProt P80192) | 10
MTOR (Homo sapiens, UniProt P42345) | 0
TLK2 (Homo sapiens, UniProt Q86UE8) | 3

Set 4
SMILES: CC(C)n1cnc(-c2ccc(F)cc2)c1-c1ncc(C(=O)Nc2ccc(N3CCN(C)CC3)cc2)[nH]1
test | test system | conditions | patients with respiratory failure [%]
phase 2a trial | idiopathic pulmonary fibrosis patients | 30 mg once daily, grade 4 emergent event | 0
– | human, idiopathic pulmonary fibrosis | 30 mg once daily, trial, treatment-emergent | 0
phase 2a trial | idiopathic pulmonary fibrosis patients | all arms, grade 4 emergent event | 0
phase 2a trial | idiopathic pulmonary fibrosis patients | 30 mg once daily, grade 5 emergent event | 0
phase 2a trial | idiopathic pulmonary fibrosis patients | all arms, grade 5 emergent event | 0
phase 2a trial | idiopathic pulmonary fibrosis patients | all arms, grade 2 emergent event | 0

Single results of other studies
Structure (SMILES) | target or system | test | test system | conditions | measurement | result
CN1CCN(C(=O)C(C)(C)c2ccc(C(=O)Nc3cn4cc(-c5cc(C(C)(C)C)cc(C(C)(C)C)c5)ccc4n3)cc2)CC1 | CHRM1 (Homo sapiens, UniProt P11229) | binding | – | – | Ki | 1340 nM
COc1ccc(-c2c(Nc3ccccn3)[nH]c3c(C4=CCCCC4)c(-c4ccccc4)nn3c2=O)cc1 | – | LC-MS/MS | human, plasma | oral, 50 mg once daily | Cavg | 1380 ng/mL and 1450 ng/mL and 1340 ng/mL
Cn1cncc1[C@@](O)(COc1ccc(C#N)cc1-c1ccc(OC(F)(F)F)cc1)c1ccc(C#N)cc1 | HEK293T | high-content imaging | – | 10 µM, 0 h | cells with fragmented nuclei | 6.64% and 18.6%

Some of these lines once more (set 3):
target | inhibition [%]
PIK3CA (Homo sapiens, UniProt P42336, E545A) | 3
TLK2 (Homo sapiens, UniProt Q86UE8) | 3
PRKCH (Homo sapiens, UniProt P24723) | 9
EIF2AK2 (Homo sapiens, UniProt P19525) | 29
